Measurements from different studies.
Every numbered part comes from another study and shows a few of its results, in no order. Substitutions count along the parent as printed.

Series 1
Target: CREB3L2, bZIP domain (human)
Technique: DHFR protein complementation
Sample: yeast
Setting: single substitutions, most at no-binding floor
Reference: wild-type JUN-FOS pair
Direction: higher = stronger binding
Quantity: binding fitness
Starting sequence: JUN, bZIP domain (human); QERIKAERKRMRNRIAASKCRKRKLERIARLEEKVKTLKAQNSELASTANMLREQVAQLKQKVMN; partner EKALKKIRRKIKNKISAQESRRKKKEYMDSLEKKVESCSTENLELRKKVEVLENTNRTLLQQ
L31P: -1.52 natural log
A49M: -1.38 natural log
A46G: -1.48 natural log
E32G: -1.35 natural log
Q55F: -1.42 natural log
L38C: -1.49 natural log
A46V: -1.3 natural log
S43D: -1.26 natural log
M51L: -1.53 natural log
S43R: -1.39 natural log
K34L: -1.32 natural log
A49C: -1.51 natural log
A40E: -1.46 natural log
A40V: -1.51 natural log
L52R: -1.53 natural log
A40G: -1.33 natural log
T37S: -1.42 natural log
L52T: -1.33 natural log
L31N: -1.57 natural log
T48Q: -1.32 natural log
M51Q: -1.6 natural log
E32F: -1.55 natural log
A29F: -1.52 natural log
N42T: -1.49 natural log

Series 2
Target: ABI1, truncated, D143A, DHFR fusion (Arabidopsis thaliana)
Technique: DHFR PCA, deep sequencing
Sample: yeast
Setting: methotrexate growth selection, single substitutions
With: (+)-ABA 0.0091 µM
Reference: wild-type fitted maximum
Direction: higher = stronger binding
Quantity: relative binding score
Starting sequence: PYL1, truncated, DHFR fusion (Arabidopsis thaliana); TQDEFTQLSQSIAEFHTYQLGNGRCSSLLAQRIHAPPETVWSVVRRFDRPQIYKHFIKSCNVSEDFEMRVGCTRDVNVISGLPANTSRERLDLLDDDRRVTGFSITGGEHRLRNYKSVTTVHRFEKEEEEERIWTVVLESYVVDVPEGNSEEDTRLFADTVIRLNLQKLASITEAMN; partner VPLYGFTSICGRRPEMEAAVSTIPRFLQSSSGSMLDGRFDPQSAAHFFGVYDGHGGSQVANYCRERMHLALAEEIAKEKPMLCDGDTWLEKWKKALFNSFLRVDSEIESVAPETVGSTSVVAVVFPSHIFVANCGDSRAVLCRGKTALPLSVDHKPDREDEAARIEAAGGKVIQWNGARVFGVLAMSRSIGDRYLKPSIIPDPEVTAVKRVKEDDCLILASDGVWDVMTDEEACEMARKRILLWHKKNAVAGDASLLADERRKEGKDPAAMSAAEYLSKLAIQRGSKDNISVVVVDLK
F5Q: 5.52%
N149A: 44.9%
G71H: -0.986%
Q167C: 3.72%
E152W: 2.71%
K54C: -3.05%
T73M: 32.6%
L29C: 29.7%
R163K: 42.5%
L164M: 15.3%
C25T: 51.2%
I33C: 3.01%
P37D: -3.47%
E174H: -11.4%
R111N: -4.71%
N77H: 60.6%
A30R: 3.35%
G23Q: 4.61%

Series 3
Target: Ras GTPase-activating protein-binding protein 1, RRM domain (G3BP1, Homo sapiens, UniProt Q13283)
Sequence of UniProt Q13283 (whole entry, looked up): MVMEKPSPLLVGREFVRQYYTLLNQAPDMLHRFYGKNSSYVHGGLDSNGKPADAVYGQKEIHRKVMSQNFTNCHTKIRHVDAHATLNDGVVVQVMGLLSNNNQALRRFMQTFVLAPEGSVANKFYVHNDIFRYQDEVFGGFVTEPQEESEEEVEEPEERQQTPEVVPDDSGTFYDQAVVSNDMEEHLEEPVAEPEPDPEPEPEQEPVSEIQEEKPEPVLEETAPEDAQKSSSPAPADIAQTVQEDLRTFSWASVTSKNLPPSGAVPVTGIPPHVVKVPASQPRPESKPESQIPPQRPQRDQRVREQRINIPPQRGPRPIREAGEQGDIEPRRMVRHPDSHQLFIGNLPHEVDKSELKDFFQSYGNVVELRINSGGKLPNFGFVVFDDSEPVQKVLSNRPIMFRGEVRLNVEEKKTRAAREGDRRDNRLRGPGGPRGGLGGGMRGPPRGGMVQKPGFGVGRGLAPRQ
Technique: RNA Bind-n-Seq
Form: RNA
Sample: in vitro
Concentration: 1 µM
Setting: whole 134-nt RNA, ends assumed
With: 150 mM KCl
Reference: input library
Direction: higher = stronger binding
Quantity: log2 enrichment
Shared flanks, not repeated: GGGAGUUCUACAGUCCGACGAUC … UGGAAUUCUCGGGUGUCAAGG
AGUCCUGUGCUACACAUCGUAUGUACCGAAUCGGGGCCCCCGGGCCCCCGGCCCCCGGAAAGUAUUAUGUUACGCCGUUCGGAUCUGCAC: -0.512
UGGCCCUGGUGGCAUGCGGGGAGGAAGAGGUGGCCUCAUGGAUCGUGGUGGUCCCGGUGGAAUGUUCAGAGGUGGUCGUGGUGGAGACAG: 2.17
ACCAUGCAAGUGGGCAUCUUUGGGAAGUGGGGCAAGGGGGGGAUAGGGAGGGGGGUAACACUUUGGGAACAGGUGGUCCCAGGUCGUUUC: -0.442
CCUGUGCUACACAUCGUAUGUACCGAAUCGGGUUUUUUUGGUUUUUUUGGUUUUUUUGGGAAAGUAUUAUGUUACGCCGUUCGGAUCUGC: -0.221
UGGGAGGUGGAUUUUGUUUAUUUUUUUAGCUCAUUUCCAGGGGUGGGAAUUUUUUUUUAAUAUGUGUCAUGAAUAAAGUUGUUUUUGAAU: 1.51
CAAGUCCUGUGCUACACAUCGUAUGUACCGAAUCGGGUUUGGGAAAGGGUUUGGGAAAGUAUUAUGUUACGCCGUUCGGAUCUGCACUUC: 0.752
UCUUCAGAGGCCCCACAGUAUCAAAUAUCCGCCUGGCUGGAUUAGAGUAUGUUCUGCACUUCACUGCACUGAAUGGGAAGAUUUACUUUC: -0.153
UGGCCCUGGUGGCAUGCGGGGAGGAAAAGGUGGCCUCAUGGAUCGUGGUGGUCCCGGUGGAAUGUUCAGAGGUGGCCGUGGUGGAGACAG: 0.872
CACAGACAACACGCACCCACACAGACACAGAGGGAAGGGGUUGGGAGGGGGACAGGGUGCACAGCAGGGCGGGGUAGGACCCCAGCCCCU: -0.0536
AGUCCUGUGCUACACAUCGUAUGUACCGAAUCGGGGUUUUUUUGGGGAGGGGUGGGGAAAGUAUUAUGUUACGCCGUUCGGAUCUGCACU: 0.822
AGUCCUGUGCUACACAUCGUAUGUACCGAAUCAAAUUUAAACCCCCCCAAACCCAAAAAAGUAUUAUGUUACGCCGUUCGGAUCUGCACU: -0.272
UUCAGUUUCCCAAACCUGAGAUGAUCUGUCAGCUGGAGAACUGGGACGAGCAGUGGAUCCUGGAUCUACCGAGAACUGGGAAUAGGAAGG: -0.18
AAGUCCUGUGCUACACAUCGUAUGUACCGAAUCGGGGAAAGGGGAAAGGGAAAGGGGAAAGUAUUAUGUUACGCCGUUCGGAUCUGCACU: 0.438
UAACUUUAGAGGAGGAUCUGAUGGCUAUGGCAGUGGACGUGGAUUUGGGGAUGGCUAUAAUGGGUAUGGAGGAGGACCUGGAGGUGGCAA: -0.882

Series 4
Target: RNA binding protein fox-1 homolog 2, RRM domain, GST-SBP tag (RBFOX2, Homo sapiens, UniProt O43251-10, residues 100-194)
Technique: RNA Bind-n-Seq
Form: RNA
Sample: in vitro
Concentration: 365 nM
Setting: natural RNA segment, single round, ends assumed
Reference: no-protein control
Direction: higher = stronger binding
Quantity: RBNS enrichment (R)
Shared flanks, not repeated: GGGAGUUCUACAGUCCGACGAUC … UGGAAUUCUCGGGUGCCAA
Target sequence (chain): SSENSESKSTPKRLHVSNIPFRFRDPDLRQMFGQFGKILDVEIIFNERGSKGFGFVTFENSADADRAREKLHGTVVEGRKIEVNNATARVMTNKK
UUGCUCUCCCUUAGUGUUCCCUGGCCUCCCUGCCAUCAGGUUGCUGGGAGUGGAGAUGGAGGGAUUAUUGAGCAGAAAAUGAGUUGGAUGGAGAUAAACAGCUCCCAUCC: 0.347
UUGGAUGUGAAUGUCCUUGCAGGCCGGUUAGUCUCCAGUUUCCACAGAGACCACCUACCCACCACCUUCCCAGGUCACCUGCCUGGUCCCUGAAAGAAAGCAUUUGUGUG: 0.402
UUGCCAUCCUAUUCUUGGCUCAUCCAGUGUUAAUGCACUUUCCACAGUUGGACGUGGUGUUAGUUUUAGACAAACGGGUUUCAUUAUUAUUCCUCUUUGCCUUCUCAAUG: 0.405
AAAAAUAGAAAUUACACUCAGGAUCACUGUUACUGCUAUUGCCACUGAUGAUUCCUGCAAAAAUAUAAUCGAAGUUUUCCAUCAAAUGUAUAAUAUGCUAUUAAUACACA: 0.811
UCAAUUACCCAUCACAUAAAUAUGAAACAUUUAUCAGAAAUGUUGCCAUUUUAAUGAGAUGAUUUUCUUCAUCUCAUAAUUAAAAUACCUGACUUUAGAGAGAGUAAAAU: 0.394
AAGCGUGUCUGGAAAGGGGUUCAUGCCUCUAAGGGGCUUACGGAGAUGCUGAGGUACUGCCUCGCCUCAUGGGUGUGUCAGGUUUCUACACCUGUGUGCUUUUCUAGAAA: 0.343
GUGGGUUCCCUGCCACCCAGGCAAACAGGCUGAAGAUUCUCACCUUUUCUUUCCAGUGUGAUUACACGUGCAUUUCCAGGUGCUGAUUUGCAGCUCUCUGUUACCUUAAU: 0.254
GUGGAAUCAGAAACCUGUUUUGAUAUGUGUUCUCUAUGAGUUAAGUCUGAUUUGUCUUUUUAUUUCAUGAUGCAUGUCUUUUUUUUCUUUUGUCAGGAUAACGUCAUAUA: 1.11
GCUUUUCACAGGCGUGGGAUCCAGGAUGGUGUCCUCUGUGAGGACUUGAACUCUGGGGCUUUAAUUCCACUGUUUAAUUUUCAGGUACCACAGCAGCAAAGCACAGAGUG: 0.402
CCCAUUGCUGGUAGACAAUUUUCAUCUCUGCUGGUGGUGGCCUCUUGUUGACUCUGAAACUUGUCACCUUGUCACCAGCUAGAUGUCAAGACUUGGCUGCCCUCUGAUGU: 0.372
CUGUGGCGUGGCCAGGCCGGGGCAUGGCUCUUACCCGGGGAGUGGUGGGCAUCUCGAUGCUUCUUUGCCUUAAUGAUGGCCACAUCUGGGCUGCUCUGCACCCACGGGAG: 0.36
AGUAGCAGAGGGUCUCGUGCCCAAAAGGCUACCCUUCAAGAUAAGGGAGCCCCGAGGGUCUUUGCAGGAGUUGAUCUUGCUGUGUAGAGCACUAUUGUCCCGGGGUUGAC: 0.28

Series 5
Target: Histone acetyltransferase KAT6A, both winged helices, GST fusion (KAT6A, Homo sapiens, UniProt Q92794, residues 1-181)
Technique: protein binding microarray
Form: double-stranded DNA, one strand shown
Sample: in vitro
Concentration: not given
Setting: 8-mer, flanks averaged, mean of 2 arrays, mostly near background
Reference: not given
Direction: higher = stronger binding
Quantity: E-score
Target sequence (chain): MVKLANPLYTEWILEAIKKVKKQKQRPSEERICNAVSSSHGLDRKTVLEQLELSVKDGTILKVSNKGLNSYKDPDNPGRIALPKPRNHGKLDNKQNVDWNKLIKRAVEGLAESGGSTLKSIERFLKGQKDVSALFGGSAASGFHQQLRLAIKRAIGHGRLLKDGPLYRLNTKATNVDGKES
ACGAGTCC: 0.0111
ACCCACAG: -0.187
AGTTGCAA: -0.0207
AAATTGCA: -0.136
GGCGCTAC: 0.203
GTAATCTA: -0.0827
CGACGTAG: -0.0137
TGCAAAAA: -0.0768
TTGTTAAA: -0.0117
CAAGTATA: -0.117
GCCATAGA: -0.0464
CCATGTGC: 0.0713
GATCCGCC: 0.156
TACCCGAA: 0.181
AGTCTCGG: 0.114
AAGCAGAT: -0.216
CTTACGGA: 0.0911
AACGGGCT: 0.156
CTCAAATA: 0.0365
AAATATAT: -0.0678
ATCGAGAG: -0.11
TAGATACA: -0.0769
AACCTGTG: -0.234
CAGGGGTA: -0.201
CGCAAGCA: 0.133

Series 6
Target: CCNB2, cyclin fold, Cln2 fusion (human)
Technique: yeast growth competition, sequencing
Sample: yeast
Setting: weak parent motif
Reference: not given
Direction: higher = stronger binding
Quantity: normalised enrichment score
Starting sequence: ORC1 docking peptide (human); PRARKRLELGNLG; partner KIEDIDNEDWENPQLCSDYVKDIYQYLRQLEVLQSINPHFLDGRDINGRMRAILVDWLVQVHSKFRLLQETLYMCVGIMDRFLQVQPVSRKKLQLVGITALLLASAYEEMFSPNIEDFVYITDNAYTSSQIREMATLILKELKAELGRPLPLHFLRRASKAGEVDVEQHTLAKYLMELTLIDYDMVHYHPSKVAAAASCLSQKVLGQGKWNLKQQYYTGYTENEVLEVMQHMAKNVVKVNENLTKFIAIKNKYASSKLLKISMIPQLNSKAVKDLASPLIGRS
N11I: -0.00776
N11V: 0.608
L9G: 0.461
R4W: 0.44
L9K: 0.644
G13H: 0.536
L9V: 1.02
L9I: 0.529
K5D: -0.0889
L12P: 0.492
R4Q: 0.00228
P1A: 1.18
N11G: 0.613
K5R: 0.664
G13P: 0.0981
L7V: 0.0772
A3H: 0.574
A3D: -0.0865
L12C: 0.525
G10H: 0.354
G10F: 0.437
L7W: 0.425
L9H: 0.385
R4F: 0.0958
K5N: 0.4

Excerpt of the above (series 2):
E152W: 2.71%
K54C: -3.05%
T73M: 32.6%
L29C: 29.7%
R163K: 42.5%
L164M: 15.3%
C25T: 51.2%
I33C: 3.01%
